Measured values collected from several papers.
Parts stem from different laboratories: compare values within a part only.

Set 1
Target: Histone acetyltransferase KAT6A, both winged helices, GST fusion (KAT6A, Homo sapiens, UniProt Q92794, residues 1-181)
Technique: protein binding microarray
Form: double-stranded DNA, one strand shown
Medium: in vitro
Tested at: not given
Setting: 8-mer, flanks averaged, mean of 2 arrays, mostly near background
Relative to: not given
Direction: higher = stronger binding
Target sequence (chain): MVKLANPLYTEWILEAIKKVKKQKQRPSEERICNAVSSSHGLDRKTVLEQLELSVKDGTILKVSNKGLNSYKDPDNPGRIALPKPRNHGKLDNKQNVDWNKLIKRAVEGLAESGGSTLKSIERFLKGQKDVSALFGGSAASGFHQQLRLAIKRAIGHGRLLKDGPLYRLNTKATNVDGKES
| Strand | E-score |
| --- | --- |
| AACGCGCA | 0.268 |
| ATGTAAGG | -0.2 |
| ACTCTGGA | -0.066 |
| ATTCACTC | -0.0996 |
| AAATGACC | -0.131 |
| TAAATCTA | -0.0652 |
| CGTCTCGC | 0.208 |
| AGGGATGA | -0.238 |
| ACATGTCC | 0.0517 |
| CCTAGTCC | -0.125 |
| AACGTGTG | -0.142 |
| GGTCGGTA | 0.0691 |
| ACCATGAG | -0.0616 |
| GACGTCAC | 0.0105 |
| AGCCGCCT | 0.202 |

Set 2
Target: Centromere-binding protein 1, full length, His-tagged (CBF1, Saccharomyces cerevisiae, UniProt P17106, residues 1-351)
UniProt P17106, sequence (whole entry, looked up): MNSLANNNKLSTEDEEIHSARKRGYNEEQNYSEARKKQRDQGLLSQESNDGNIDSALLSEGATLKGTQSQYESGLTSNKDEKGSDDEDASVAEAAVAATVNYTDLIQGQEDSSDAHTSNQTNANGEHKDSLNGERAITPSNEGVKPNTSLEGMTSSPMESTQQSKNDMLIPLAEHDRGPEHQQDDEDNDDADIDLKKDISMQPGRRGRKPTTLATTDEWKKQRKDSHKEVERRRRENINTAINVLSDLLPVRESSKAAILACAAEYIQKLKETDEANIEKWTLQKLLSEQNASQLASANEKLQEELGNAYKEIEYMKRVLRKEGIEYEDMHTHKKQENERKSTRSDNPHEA
Technique: competition protein-binding microarray
Form: double-stranded DNA, one strand shown
Medium: in vitro
Tested at: 2 µM
Setting: whole 60-bp probe, lowest competitor level
Together with: Pho4 competitor, 0.05 µM
Direction: higher = stronger binding
All sequences stand within: … GTCTTGATTCGCTTGACGCTGCTG
| Strand | fluorescence intensity [a.u.] |
| --- | --- |
| GTCTTGTCTCATTGTCACAACACTTTCCCCACTTCA | 117 |
| GTCTTGTCTCATTGCTGGGTGGGTGTCCCCACTTCA | 78.8 |
| CTTTCCCGATCTTGTTCCGTGGGTGTAGCACATTTG | 68.9 |
| TTTAATGGTCCAAAGCATGTGCTAAACTGCCACAGA | 116 |
| TCAACGCCTTTTACCTTGTCCTTTGATGCCTGTCTC | 70 |
| ATGAAACCTAAGTCCCACGTGTCGGTTAAATGGCCA | 1150 |
| ACACCAAACCTCTTCCACGTGTTTTTCTTGGTGGAT | 821 |
| GTCTTGTCTCATTGACGGGTGGGTGTCCCCACTTCA | 63.6 |

Set 3
Target: Sal-like protein 4, full length isoform A (SALL4, Homo sapiens, UniProt Q9UJQ4, residues 1-1053)
UniProt Q9UJQ4, sequence (whole entry, looked up): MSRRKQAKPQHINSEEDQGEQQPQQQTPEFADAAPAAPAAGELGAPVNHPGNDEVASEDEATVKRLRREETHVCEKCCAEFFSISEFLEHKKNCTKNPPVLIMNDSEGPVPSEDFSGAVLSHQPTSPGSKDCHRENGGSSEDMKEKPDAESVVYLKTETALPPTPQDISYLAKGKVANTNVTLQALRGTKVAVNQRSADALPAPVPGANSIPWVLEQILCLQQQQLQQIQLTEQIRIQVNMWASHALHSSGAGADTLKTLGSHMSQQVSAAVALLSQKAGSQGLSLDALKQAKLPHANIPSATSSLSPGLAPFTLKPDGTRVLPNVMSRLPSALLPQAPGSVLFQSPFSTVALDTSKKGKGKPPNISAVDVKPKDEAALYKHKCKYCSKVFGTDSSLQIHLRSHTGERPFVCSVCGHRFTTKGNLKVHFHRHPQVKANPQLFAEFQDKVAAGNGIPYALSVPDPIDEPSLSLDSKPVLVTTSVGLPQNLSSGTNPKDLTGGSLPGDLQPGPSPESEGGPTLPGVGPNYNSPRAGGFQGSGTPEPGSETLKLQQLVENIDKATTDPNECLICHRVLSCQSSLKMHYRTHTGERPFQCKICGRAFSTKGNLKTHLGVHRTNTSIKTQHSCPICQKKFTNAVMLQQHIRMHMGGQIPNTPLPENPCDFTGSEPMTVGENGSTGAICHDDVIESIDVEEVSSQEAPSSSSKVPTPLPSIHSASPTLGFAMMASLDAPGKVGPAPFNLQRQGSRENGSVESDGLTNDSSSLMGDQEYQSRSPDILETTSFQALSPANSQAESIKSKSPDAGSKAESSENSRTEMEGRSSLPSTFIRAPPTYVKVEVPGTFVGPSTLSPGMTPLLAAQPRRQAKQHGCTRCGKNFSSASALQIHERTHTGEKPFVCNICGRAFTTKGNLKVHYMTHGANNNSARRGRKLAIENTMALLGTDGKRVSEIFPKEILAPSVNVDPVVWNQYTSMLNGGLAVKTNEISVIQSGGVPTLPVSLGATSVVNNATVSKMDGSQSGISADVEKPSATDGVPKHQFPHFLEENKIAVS
Technique: universal PBM
Form: double-stranded DNA, one strand shown
Medium: in vitro
Tested at: 600 nM
Setting: 8-mer, flanks averaged, mean of replicates
Direction: higher = stronger binding
| Strand | E-score |
| --- | --- |
| CACGGCAC | -0.175 |
| GGATGACC | -0.259 |
| GCCACATA | -0.029 |
| ATTCGAGC | 0.00904 |
| GAGTTTAA | 0.136 |
| TATTCGAA | 0.214 |
| CCCACCCG | -0.19 |
| GCACTGGA | -0.176 |
| GAGACGAA | 0.0298 |
| GGGCCTTA | -0.218 |
| CTGCATGC | -0.133 |

Mixed results
| Substance | target | test | system | conditions | how to read | endpoint | result |
| --- | --- | --- | --- | --- | --- | --- | --- |
| PhoQ, residues 284 288 289 292 302 303 ALVSVA | PhoP, residues 12 14 15 18 19 AQCLL (Escherichia coli, UniProt P23836) | Sort-seq, measured: YFP reporter | E. coli | PhoQ-PhoP variant library, together with: 10 µM Mg2+ | relative to: high Mg2+ state, higher = stronger signaling | fold induction | 3.88 |

Some of these lines once more (set 2):
| Strand | fluorescence intensity [a.u.] |
| --- | --- |
| ACACCAAACCTCTTCCACGTGTTTTTCTTGGTGGAT | 821 |
| TCAACGCCTTTTACCTTGTCCTTTGATGCCTGTCTC | 70 |
| GTCTTGTCTCATTGCTGGGTGGGTGTCCCCACTTCA | 78.8 |
| CTTTCCCGATCTTGTTCCGTGGGTGTAGCACATTTG | 68.9 |
| GTCTTGTCTCATTGTCACAACACTTTCCCCACTTCA | 117 |
